Experimental data from different studies.
Each numbered part is a random draw from the data of one study; scales do not carry over between parts. Changes are numbered by the printed parent chain.

Set 1 — method: RNA Bind-n-Seq; molecule type: RNA; sample: in vitro; tested at: not given; notes: RNA with constant flanks, ends assumed; relative to: input RNA pool; direction: higher = stronger binding
Target: RING finger protein unkempt homolog, zinc fingers 1-6, GST-SBP tag (UNK, Homo sapiens, UniProt Q9C0B0, residues 30-357)
Constant ends, left off below: GGGAGUUCUACAGUCCGACGAUC … CAACAGAGGAUUGAGCAUCA
Target sequence (chain): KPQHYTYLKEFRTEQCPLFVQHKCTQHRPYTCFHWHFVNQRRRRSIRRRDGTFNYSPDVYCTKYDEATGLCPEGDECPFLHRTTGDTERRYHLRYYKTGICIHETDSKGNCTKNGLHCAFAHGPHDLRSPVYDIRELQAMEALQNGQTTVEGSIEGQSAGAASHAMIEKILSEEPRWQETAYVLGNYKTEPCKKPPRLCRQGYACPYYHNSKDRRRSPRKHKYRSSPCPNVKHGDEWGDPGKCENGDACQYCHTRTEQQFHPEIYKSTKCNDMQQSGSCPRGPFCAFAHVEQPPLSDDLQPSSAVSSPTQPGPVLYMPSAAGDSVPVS
Oligonucleotide	bound/input enrichment
GCAUUUGAAAGCUCAUGACAGAGCUAAAGAUCUGCCCCCCCUUCUCUCCCCUAUUUCUUUCCGGUGCCAUCUCAGUCUAAUCAUGGGUAUAAAUUCACCUUGGCCAGAGAAACUCACUAA	0.548 ratio
UAUUUUCUAUUUAGUCUGUAUAUUUUGUUCUUCAUAGUCUGUUUUUUCUAGCAUGCUUGAUUCCGGAGAGAAUAAAGGGCUAUAUAAUAAUAAAUCCAGAUUUCCGGAUAAGAAUAUUGC	28.3 ratio
ACUGAGCCAUUUCCUAUUUUAAAUGGCUUCUAUAGAAAAUUAACAACUCAGUUAUUAAACCCGCAGGAUCCUACAAUGAUACAUCUAGUGAAAGUAGACUUAGUUAACUUAUUUAUUUCU	62.1 ratio
AUCAACCAAGCUGCUCUUCUCAGCAUCCCUGGCUUUGUGGAACGGCUUUGCAAACUGGCAACCCGGAAAGUGUCAGAGUCAACGGGCACAGCCAGCUUCCUUCAAGAACUGGAGGAGUGG	0.111 ratio
ACUUGCUGUCUCUUAGAGGCUGAGCUUCAUUUCUAUGAGCAAAGAGCUCAUUUAGCAAUGCCGUUAUUUCAGUAUUUAUUUCUAUUAUGGAAUCCCUGGGGUUCAGAAUGUAACUUUGUA	2.8 ratio
GUUUUCAUGCCCGGCCUUUGUUCCCCCCGUCCAUGUGUCCUUUAGUUUCAAACAGAUCUUUACCGUUUGUGCUUCAUAAGCCAAUUCUUAUUAUGAUUUUGGGGGACUGUUCUUCAAAGA	0.283 ratio
CUGUAUUGACCAAAGCUUUCAGUUGUUCUUCAUUCUGUGCUCAGGAUUGAAAUGCUGCGCCGACGUUGUGUUGUUAGUGCUGGGCACGGAUUCUGGGACGGUGAGCUGUUGAUUUCCUAA	0.082 ratio

Set 2 — target: CREB3L1, bZIP domain (human); method: DHFR protein complementation; sample: yeast; relative to: wild-type JUN-FOS pair; direction: higher = stronger binding
Notes: single substitutions, most at no-binding floor
Starting sequence: JUN, bZIP domain (human); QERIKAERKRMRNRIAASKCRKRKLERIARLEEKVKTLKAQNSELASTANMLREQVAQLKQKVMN; partner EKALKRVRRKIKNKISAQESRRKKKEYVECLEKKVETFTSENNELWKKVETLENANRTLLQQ
Substitution	binding fitness [natural log]
Q58A	-1.43
L31Q	-1.48
Q55N	-1.54
E54P	-1.53
M51Q	-1.46
E32V	-1.4
V56E	-1.43
N42P	-1.51
I28C	-1.34
T37S	-1.41
K36T	-1.34
S47L	-1.43
A46I	-1.34
N42K	-1.37
K36W	-1.32
A29W	-1.19
E44Y	-1.53
M51P	-1.46

Set 3 — target: CCNB2, cyclin fold, Cln2 fusion (human); method: yeast growth competition, sequencing; sample: yeast; notes: weak parent motif; relative to: not given; direction: higher = stronger binding
Starting sequence: RB1 docking peptide (human); PKPLKKLRFDIEG
Substitution	normalised enrichment score
PKILKKLRFDIEG [P3I]	0.183
PKPLKKLRFDIPG [E12P]	0.14
PKPLSKLRFDIEG [K5S]	0.962
LKPLKKLRFDIEG [P1L]	-0.0791
PKPLKKLRVDIEG [F9V]	0.118
PKPLKKLRPDIEG [F9P]	-0.0317
PKPLKVLRFDIEG [K6V]	0.585
PDPLKKLRFDIEG [K2D]	-0.3
PKLLKKLRFDIEG [P3L]	0.603
PKPLKKLRFDIIG [E12I]	0.788
PKPLKSLRFDIEG [K6S]	0.211
PKPLKKLRWDIEG [F9W]	0.298
PKPLRKLRLDIEG [K5R F9L]	-0.108
PKWLKKLRFDIEG [P3W]	0.243
PKPLKKLKFDIEG [R8K]	0.192
PKPLKKLRFDIGG [E12G]	0.884
PEPLKKLRFDIEG [K2E]	0.0284
PKPLKKLRQDIEG [F9Q]	0.42
PKPLKKLVFDIEG [R8V]	0.782
PKPLKKLRFDIKG [E12K]	-0.164
PKPSKKLRFDIEG [L4S]	0.396
PKPLKKQRFDIEG [L7Q]	-0.143
PKPLKKLRDDIEG [F9D]	0.248

Set 4 — target: CDC34 UBC core domain (UniProt P49427); method: yeast two-hybrid; sample: yeast; notes: mostly zero background; relative to: not given; direction: higher = stronger interaction
B1: RNF170 RING domain (UniProt Q96K19); chain TRQQFYTDMYCPICLHQASFPVETNCGHLFCGACIIAYWRYGSWLGAISCPICRQTVTLLLTVF
B2: UHRF2 RING domain (UniProt Q96PU4); chain CGGDPEKKCHSCSCRVCGGKHEPNMQLLCDECNVAYHIYCLNPPLDKVPEEEYWYCPSCKTDSSEVVKAGER
B3: CUL9 RING domain (UniProt Q8IWT3); chain AQAVPVRPDHCPVCVSPLGCDDDLPSLCCMHYCCKSCWNEYLTTRIEQNLVLNCTCPIADCPAQPTGAFIR
B4: ZNF598 RING domain (UniProt Q86UK7); chain AAAPERGGGSCVLCCGDLEATALGRCDHPVCYRCSTKMRVLCEQRYCAVCREELRQVVFGK
B5: RNF25 RING domain (UniProt Q96BH1); chain LTDNNIPHGQCVICLYGFQEKEAFTKTPCYHYFHCHCLARYIQHMEQELKAQGQEQEQERQHATTKQKAVGVQCPVCREPLVYDLASL
B6: RC3H2 RING domain (UniProt Q9HBD1); chain QAAQWTEFLSCPICYNEFDENVHKPISLGCSHTVCKTCLNKLHRKACPFDQTAINTDIDVL
B7: TRIM8 RING domain (UniProt Q9BZR9); chain WKNCFEEELICPICLHVFVEPVQLPCKHNFCRGCIGEAWAKDSGLVRCPECNQAYNQKPGLE
B8: IRF2BPL RING domain (UniProt Q9H1B7); chain SPMANSGPLCCTICHERLEDTHFVQCPSVPSHKFCFPCSRESIKAQGATGEVYCPSGEKCPLVGSNVP
B9: PHF21A RING domain (UniProt Q96BD5); chain SPTSTDGDIHEDFCSVCRKSGQLLMCDTCSRVYHLDCLDPPLKTIPKGMWICPRCQDQMLKKEEAIPW
Target sequence (chain): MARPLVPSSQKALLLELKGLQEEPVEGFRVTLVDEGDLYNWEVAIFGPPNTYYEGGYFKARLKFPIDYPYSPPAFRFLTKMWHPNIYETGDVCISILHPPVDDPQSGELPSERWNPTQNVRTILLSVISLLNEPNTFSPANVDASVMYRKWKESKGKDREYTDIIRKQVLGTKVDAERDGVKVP
Sequence	lacZ reporter activity
KTLSRFGIQPCSICLGDAKDPVCLPCDHVHCLRCLRAWFASEQMICPYCLTALPDEFSPA (RNF213 RING domain (UniProt Q63HN8))	0
DAIPSLSECQCGICMEILVEPVTLPCNHTLCKPCFQSTVEKASLCCPFCRRRVSSWTRYH (RNF168 RING domain (UniProt Q8IYW5))	0
B1 (RNF170 RING domain)	0
B2 (UHRF2 RING domain)	0
B3 (CUL9 RING domain)	0
B4 (ZNF598 RING domain)	0
B5 (RNF25 RING domain)	0
QLRRLQEERTCKVCMDKEVSVVFIPCGHLVVCQECAPSLRKCPICRGIIKGTVRTF (BIRC2 RING domain (UniProt Q13490))	0
B6 (RC3H2 RING domain)	0
B7 (TRIM8 RING domain)	0
QHHELTSLFECPVCFDYVLPPILQCQAGHLVCNQCRQKLSCCPTCRGALTPSIRNL (SIAH2 RING domain (UniProt O43255))	0
B8 (IRF2BPL RING domain)	0
B9 (PHF21A RING domain)	0
QLQDIKEQTMCPVCLDRLKNMIFLCGHGTCQLCGDRMSECPICRKAIERRILLY (MIB1 RING domain (UniProt Q86YT6))	0

Set 5 — method: DHFR PCA, deep sequencing; sample: yeast; added: (+)-ABA 0 µM; relative to: wild-type fitted maximum; direction: higher = stronger binding
Target: ABI1, truncated, D143A, DHFR fusion (Arabidopsis thaliana)
Notes: methotrexate growth selection, single substitutions
Starting sequence: PYL1, truncated, DHFR fusion (Arabidopsis thaliana); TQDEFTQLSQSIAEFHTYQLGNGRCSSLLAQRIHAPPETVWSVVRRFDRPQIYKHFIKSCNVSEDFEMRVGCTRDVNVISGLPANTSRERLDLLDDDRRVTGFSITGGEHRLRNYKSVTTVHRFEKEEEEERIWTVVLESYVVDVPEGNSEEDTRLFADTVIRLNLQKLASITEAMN
Substitution	relative binding score [%]
N22G	19.5
F5A	8.04
M68W	-1.07
E151P	38.2
L93S	-1.79
N165D	14.1
E67A	9.21
G108L	-2.46
V145K	-12.5
F5G	0.709
N77Q	59.5
F5K	1.92
R132I	2.67
N77S	44.4
Q10K	30.2
G23T	0.823
F157K	0.705
D97L	-3.96
F15C	-1.97

Set 6 — method: aptamer microarray, sandwich; molecule type: DNA with 2'F-ANA; sample: in vitro; tested at: 200 nM; added: Cy3 exosite-II aptamer, 400 nM; direction: higher = stronger binding; oligonucleotide: GGTTGGTGTGGTTGG
Target: Prothrombin, mature alpha-thrombin (F2, Homo sapiens, UniProt P00734)
Notes: whole 15-mer aptamer, many near background
Modification	mean fluorescence intensity
2'F-ANA at 1 2 3 4 7 8 12 15	517 a.u.
2'F-ANA at 2 3 7 9 12 13 15	828 a.u.
2'F-ANA at 1 2 4 5 13 14 15	45.2 a.u.
2'F-ANA at 1 4 7 8 11 12 13 14	59.2 a.u.
2'F-ANA at 6 7 8 9 10 13 14	119 a.u.
2'F-ANA at 2 4 5 7 10 12	51.4 a.u.
2'F-ANA at 2 3 4 9 10	394 a.u.
2'F-ANA at 3 4 5 6 9 13 14	120 a.u.
2'F-ANA at 1 2 3 4 5 8 11 12 13 14	48.2 a.u.
2'F-ANA at 7 9 13 15	428 a.u.
2'F-ANA at 4 6 7 8 9 10 13 15	79.6 a.u.
2'F-ANA at 1 3 4 5 7 9 12 13 15	70.3 a.u.
2'F-ANA at 2 3 5 6 7 9 12 13	122 a.u.
2'F-ANA at 1 5 6 9 11 15	54.5 a.u.
2'F-ANA at 2 3 5 6 7 8 9 14 15	52.8 a.u.
2'F-ANA at 1 3 7 10 11 13 14 15	57.6 a.u.
2'F-ANA at 3 4 5 6 7 9 13 14 15	54.9 a.u.
2'F-ANA at 3 4 7 8 12 13 15	902 a.u.
2'F-ANA at 2 3 4 11 13 14 15	235 a.u.
2'F-ANA at 2 4 6 7 9 10 11 13 14	58.2 a.u.
2'F-ANA at 2 4 12	657 a.u.

Repeated from above (set 1):
Oligonucleotide	bound/input enrichment
GCAUUUGAAAGCUCAUGACAGAGCUAAAGAUCUGCCCCCCCUUCUCUCCCCUAUUUCUUUCCGGUGCCAUCUCAGUCUAAUCAUGGGUAUAAAUUCACCUUGGCCAGAGAAACUCACUAA	0.548 ratio
ACUGAGCCAUUUCCUAUUUUAAAUGGCUUCUAUAGAAAAUUAACAACUCAGUUAUUAAACCCGCAGGAUCCUACAAUGAUACAUCUAGUGAAAGUAGACUUAGUUAACUUAUUUAUUUCU	62.1 ratio
CUGUAUUGACCAAAGCUUUCAGUUGUUCUUCAUUCUGUGCUCAGGAUUGAAAUGCUGCGCCGACGUUGUGUUGUUAGUGCUGGGCACGGAUUCUGGGACGGUGAGCUGUUGAUUUCCUAA	0.082 ratio
UAUUUUCUAUUUAGUCUGUAUAUUUUGUUCUUCAUAGUCUGUUUUUUCUAGCAUGCUUGAUUCCGGAGAGAAUAAAGGGCUAUAUAAUAAUAAAUCCAGAUUUCCGGAUAAGAAUAUUGC	28.3 ratio
AUCAACCAAGCUGCUCUUCUCAGCAUCCCUGGCUUUGUGGAACGGCUUUGCAAACUGGCAACCCGGAAAGUGUCAGAGUCAACGGGCACAGCCAGCUUCCUUCAAGAACUGGAGGAGUGG	0.111 ratio
ACUUGCUGUCUCUUAGAGGCUGAGCUUCAUUUCUAUGAGCAAAGAGCUCAUUUAGCAAUGCCGUUAUUUCAGUAUUUAUUUCUAUUAUGGAAUCCCUGGGGUUCAGAAUGUAACUUUGUA	2.8 ratio
GUUUUCAUGCCCGGCCUUUGUUCCCCCCGUCCAUGUGUCCUUUAGUUUCAAACAGAUCUUUACCGUUUGUGCUUCAUAAGCCAAUUCUUAUUAUGAUUUUGGGGGACUGUUCUUCAAAGA	0.283 ratio
